Published values from different studies.
Numbered parts are unrelated; each lists some results of a single study. Positions count from the first letter of the parent shown.

Series 1
Target: RNA binding protein fox-1 homolog 2, RRM domain, GST-SBP tag (RBFOX2, Homo sapiens, UniProt O43251-10, residues 100-194)
Technique: RNA Bind-n-Seq
Molecule type: RNA
Medium: in vitro
Tested at: 365 nM
Notes: natural RNA segment, single round, ends assumed
Baseline: no-protein control
Reading: higher = stronger binding
Quantity: RBNS enrichment (R)
Constant ends, left off below: GGGAGUUCUACAGUCCGACGAUC … UGGAAUUCUCGGGUGCCAA
Residues (chain): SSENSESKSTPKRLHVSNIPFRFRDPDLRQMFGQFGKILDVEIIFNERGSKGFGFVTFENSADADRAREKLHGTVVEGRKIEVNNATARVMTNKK
CUGCUCGGAGCUCAGUGCCGCAGCAUGGCUGUGGUGGACGCGGGAAACAACGGGAAAGUUCUUGACAGAGUCUGUGUCCGCUCAGUCCCUGCACUUUUCCUUUCCAAAUG: 0.262
UCAUACAGUGAGGGUGUUAAGUCAGGUAGCUGGAGACUUCCCAUCGCCUCUGACACUUUUGGAGGUGAUAUGAUACAGCCCCCGACCAAACCAGGCUUUGUGGGGGGUGA: 0.363
UAGCUGAAGAACUUACCACGUCCAUGACUGUGCCCUGACUCAAGACCGUAUCAUGUGGUGGCUUUAUUUCUACACUUCUUGCCCACCAUGGAUGGCCUGAAGAAGCUGUU: 0.461
AAGGAGAAAAUAGAUAAUUUACAAGAUAUUAUUAAUUUUUAUUUAUUUUUCUUGGGAAUUGAAAAAAAUUGAAAUAAAUAAAAAUGCAUUGAACAUCUUGCAUUCAAAAU: 2.64
UCUCCAAAUCAAACCACAGUAUAUGUUGUAACAAUAUCUAUGACCACUGUUAGCCCAUUAUAUUCAUUCCAAUUAGAAGAAAUGUGAAUACUAUAUUCCGUGUUUUGAGU: 0.542
CCGCCUUCGAGCCUGCAGGAACUAGAACAAGACUAUGGGGAAUCCUUUCUAGUUGCCAUGGAAAAGCUGUUGUUUGAAUACUUGUGUCAGCUAGAGAAAGCACUGCCUCC: 1.44
UCUGGCAGGUGACUUUUGUACGAAAUGAAAAAAAAAAAACCUGUAUUUUUUUUGUUGUUCUUUUGUGAUUAAGGAUAUACAUUUAGUAGUCUUUGUUAUUAAAGGAACCU: 0.676
UUGAGUCAAGCCUGUCCAGAGUUCCCCUGCUGGACUCCAUCACCACACUCCCCCCAGCCUUCACCUGGCCAUGAAGGACCUUUUGACCAACUCCCUGUCAUUCCUAACCU: 0.984
ACUAUAUUUGAUGGGGCCAAGAGGGUCCAAACCCUGCUAACAUACCACUUUAUUCAACUCCUUUACUUUCCUAGCCGGUUGAGGAGGGACCAUGAGAACAGAAAUUACCU: 0.417
GAGAAAUGUCCUCAUAUUUGAGGACCAUGAAACAUUGUAGGUAUAUAUGGGGCUUUAGCAAGUUUGAGCAUAGGCUCUUUUUGCUGCCUGUGAGCAGUCCCUCUGGAAAG: 0.429
UCAAGAAAACUUUGGAAAGUCAGGAACUAAGCUGCUUGGAAAUCAGUGCCACAAGCAUGACCUUGGUGGACACAGGAAGCCACAGGAAAAUUCUUGACAGUCUGUGUCCC: 0.804
UUAUGUUCUUCUAAGUAAUGCCUAUGACCCAAUGCAACUAGGCAGUAAGUAUCCACGACUCCAACCAGUAUUAUAGACCUUGGGGAUGUUUCAGAAUGUGGAAGUUACUA: 0.467

Series 2
Target: ABI1, truncated, D143A, DHFR fusion (Arabidopsis thaliana)
Technique: DHFR PCA, deep sequencing
Medium: yeast
Notes: methotrexate growth selection, single substitutions
With: (+)-ABA 0.11 µM
Baseline: wild-type fitted maximum
Reading: higher = stronger binding
Quantity: relative binding score
Parent: PYL1, truncated, DHFR fusion (Arabidopsis thaliana); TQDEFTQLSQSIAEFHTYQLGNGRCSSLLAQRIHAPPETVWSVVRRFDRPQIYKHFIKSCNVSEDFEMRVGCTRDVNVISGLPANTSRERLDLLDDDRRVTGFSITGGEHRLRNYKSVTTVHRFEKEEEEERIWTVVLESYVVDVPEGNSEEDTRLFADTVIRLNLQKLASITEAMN
L169I: -2.75%
I105G: -9%
S140C: 0.984%
T6R: 49.9%
A30W: 23.7%
Q31L: -0.911%
A35Q: 0.125%
K116A: 2.93%
Q19C: 15.9%
R45Q: -3.62%
V70I: 26.8%
T1F: 27.2%
H110M: 27.5%

Series 3
Substance: PhoQ, residues 284 288 289 292 302 303 SSYNSA
Technique: Sort-seq
Item: YFP reporter
Medium: E. coli
Notes: PhoQ-PhoP variant library
With: 10 µM Mg2+
Baseline: high Mg2+ state
Reading: higher = stronger signaling
Quantity: fold induction
PhoP, residues 12 14 15 18 19 LHHYF (Escherichia coli, UniProt P23836): 23.5
PhoP, residues 12 14 15 18 19 NFFVT (Escherichia coli, UniProt P23836): 11.7
PhoP, residues 12 14 15 18 19 TPWTL (Escherichia coli, UniProt P23836): 0.799
PhoP, residues 12 14 15 18 19 VGHWL (Escherichia coli, UniProt P23836): 2.13

Series 4
Target: Prothrombin, mature alpha-thrombin (F2, Homo sapiens, UniProt P00734)
Technique: aptamer microarray, sandwich
Molecule type: DNA with 2'F-ANA
Medium: in vitro
Tested at: 200 nM
Notes: whole 15-mer aptamer, many near background
With: Cy3 exosite-II aptamer, 400 nM
Reading: higher = stronger binding
Quantity: mean fluorescence intensity
Sequence: GGTTGGTGTGGTTGG
2'F-ANA at 1 4 7 9 11 13 14: 51.6 a.u.
2'F-ANA at 2 4 6 8 9 11 12 13 14: 231 a.u.
2'F-ANA at 1 2 3 4 8 12: 528 a.u.
2'F-ANA at 1 3 4 5 6 8 11 13: 77 a.u.
2'F-ANA at 1 2 5 8 9 10 14: 50.5 a.u.
2'F-ANA at 3 4 5 8 9 10 14 15: 72.8 a.u.
2'F-ANA at 3 4 7 8 9 11 14 15: 326 a.u.
2'F-ANA at 3 4 7 8 11: 768 a.u.
2'F-ANA at 2 6 8 9 10 12 15: 146 a.u.
2'F-ANA at 3 4 6 9 10 12 14 15: 183 a.u.
2'F-ANA at 2 4 5 6 7 8 12 13 15: 272 a.u.
2'F-ANA at 2 3 5 7 8 9 10 11 13 14 15: 57.8 a.u.
2'F-ANA at 5 14 15: 43.3 a.u.
2'F-ANA at 1 3 6 8 12 13: 499 a.u.
2'F-ANA at 1 2 4 5 6 7 10 11 14: 59.3 a.u.
2'F-ANA at 2 6 8 10 11 13: 95 a.u.
2'F-ANA at 1 2 6 9 10 11 14: 45.8 a.u.
2'F-ANA at 4 6 7 8 11 12 13 14: 95.8 a.u.
2'F-ANA at 1 4 5 7 10 11 12: 70.9 a.u.

Excerpt of the above (series 4):
2'F-ANA at 4 6 7 8 11 12 13 14: 95.8 a.u.
2'F-ANA at 2 6 8 10 11 13: 95 a.u.
2'F-ANA at 2 3 5 7 8 9 10 11 13 14 15: 57.8 a.u.
2'F-ANA at 3 4 7 8 11: 768 a.u.
2'F-ANA at 1 4 5 7 10 11 12: 70.9 a.u.
2'F-ANA at 1 4 7 9 11 13 14: 51.6 a.u.
